Experimental data collected from several papers.
A part holds a random share of what one study measured.

Study 1 — method: RNA Bind-n-Seq; molecule type: RNA; matrix: in vitro; concentration: 200 nM; notes: whole 134-nt RNA, ends assumed; with: 150 mM KCl; baseline: input library; direction: higher = stronger binding
Target: Ras GTPase-activating protein-binding protein 1, full length (G3BP1, Homo sapiens, UniProt Q13283)
Sequence of UniProt Q13283 (whole entry, looked up): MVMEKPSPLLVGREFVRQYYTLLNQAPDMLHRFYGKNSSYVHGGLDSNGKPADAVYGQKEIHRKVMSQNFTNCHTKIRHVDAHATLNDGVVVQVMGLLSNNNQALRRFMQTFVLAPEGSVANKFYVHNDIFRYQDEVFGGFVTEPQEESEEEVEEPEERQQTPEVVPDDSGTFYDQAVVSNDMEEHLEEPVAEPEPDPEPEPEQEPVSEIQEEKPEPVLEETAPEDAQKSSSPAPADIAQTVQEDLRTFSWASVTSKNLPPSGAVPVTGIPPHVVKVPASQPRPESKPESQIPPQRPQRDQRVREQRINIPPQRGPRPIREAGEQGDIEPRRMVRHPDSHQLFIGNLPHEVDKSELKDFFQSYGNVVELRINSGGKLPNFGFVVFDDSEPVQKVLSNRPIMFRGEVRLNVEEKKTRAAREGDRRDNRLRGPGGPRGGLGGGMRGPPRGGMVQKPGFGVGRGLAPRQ
Shared flanks, not repeated: GGGAGUUCUACAGUCCGACGAUC … UGGAAUUCUCGGGUGUCAAGG
Strand | log2 enrichment
UUCCCGGAGAACUCGAGUAAAUCUAGAAGUUGCCAGGUUUCAGAACUAUUUAUUCCUUUAAUGUGCAGACGAAGGGAACGUCAUCGUUUG | 0.117
UUAGAAGAAGAAGAUGGAGUGUGGGAGAAUGGACUUUCCUAUGAAUGCCGUACUCUGCUUUUCAAAGCAGUUCACAAUCUAUUGGAACGG | -1.36
AAGUCCUGUGCUACACAUCGUAUGUACCGAAUCGGAAAGGUUUUUUUGGUUUUUGGAAAGUAUUAUGUUACGCCGUUCGGAUCUGCACUU | -1.61
UGUGCUACACAUCGUAUGUACCGAAUCGGGGUUUUUUUGGGGUUUUUUUGGGGUUUUUUUGGGAAAGUAUUAUGUUACGCCGUUCGGAUC | -0.568
GGGGACGGCAAAACAGAACAGAAAGGCGGAGAUAAAAAGAGGGGUGUUAAAAGACCACGAGAAGAUCAUGGCCGUGGAUAUUUUGAGUAC | 0.532
CACAGACAACACGCACCCACACAGACACAGAGGGAAGGGGUUGGGAUGGGGACAGGGUGCACAGCAGGGCGGAAAAGGACCCCAGCCCCU | 1.8
CCUCAAGUCCUGUGCUACACAUCGUAUGUACCGAAUCGGGCGGCGGGCGGGGAAAGUAUUAUGUUACGCCGUUCGGAUCUGCACUUCCAG | 0.681
CACAGACAACACGCACCCACACAGACACAGAGGGAAGGGGUUGGGAUGGGGACAGGGUGCUCAGCAGGGCGGGGUAGGACCCCAGCCCCU | 1.88
CCUGUGCUACACAUCGUAUGUACCGAAUCGGGGCCCCCCGGGCCCCCCGGGGCCCCCCGGAAAGUAUUAUGUUACGCCGUUCGGAUCUGC | -0.63

Study 2 — method: universal PBM; molecule type: double-stranded DNA, one strand shown; matrix: in vitro; concentration: not given; direction: higher = stronger binding
Target: Sal-like protein 4, full length isoform B (SALL4, Homo sapiens, UniProt Q9UJQ4-2, residues 1-616)
Notes: 8-mer, flanks averaged, mean of replicates
Strand | E-score
ATCTAAAG | 0.108
ACTCGATG | -0.0136
AGTGATTA | 0.205
GACCCCTC | -0.244
ACGACCAA | 0.0178
GACTGCTC | -0.359
ATTCCCAA | 0.293
TAAGGTAA | 0.158
GGGTCCAA | -0.171
AGCTTTAG | 0.0218
ACCGTTAG | 0.00707
CTTTCATA | 0.377
ACCCTGGG | -0.283
CTCGGCGA | -0.243
AAAAATAA | 0.405
AATCTATG | 0.206
CGCTGATA | 0.0659
ATTCGCGG | 0.0783
AGCGCGAT | -0.143
CTACGTTA | 0.142
TTACTGAA | 0.195

Study 3 — method: competition protein-binding microarray; molecule type: double-stranded DNA, one strand shown; matrix: in vitro; concentration: 2 µM; with: Cbf1 competitor, 0.05 µM; direction: higher = stronger binding; shared flanks, not repeated: … GTCTTGATTCGCTTGACGCTGCTG
Target: Phosphate system positive regulatory protein PHO4, full length, GST-tagged (PHO4, Saccharomyces cerevisiae, UniProt P07270, residues 1-312)
Notes: whole 60-bp probe, lowest competitor level
Construct (chain): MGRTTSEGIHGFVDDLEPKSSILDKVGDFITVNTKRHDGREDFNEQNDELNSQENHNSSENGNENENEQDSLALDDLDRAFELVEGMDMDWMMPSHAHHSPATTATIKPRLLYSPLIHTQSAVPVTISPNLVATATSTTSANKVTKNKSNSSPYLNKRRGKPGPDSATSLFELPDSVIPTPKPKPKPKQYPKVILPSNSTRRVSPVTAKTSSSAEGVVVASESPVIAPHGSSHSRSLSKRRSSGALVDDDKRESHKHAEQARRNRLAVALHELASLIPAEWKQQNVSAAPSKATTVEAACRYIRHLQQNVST
Strand | fluorescence intensity [a.u.]
CAGATGGTTCTCCATCACGTCTCTGATTATGCCTAT | 4630
CGTCCTAGTGATTGGATTGTGGGTGCCATGAGGAAG | 6800
TCTGTATGGGTTTGTCATGCTGCTCTGGCCCTTTGT | 4580
TTGGTCCAGTTCTCGCCCGTGATGGGAGAACAAGTA | 5660
AAATTACTAAGTTGTCAGGTGGGTGACGCCGTATGA | 4720
TTATACCACCATTGCCACGTTCACCAAACAATATGT | 13400
GTCTTGTCTCATTGTCACCCTACTTTCCCCACTTCA | 5100
TGGCCAAGGTTGTCTTCCGTGACTCGTACAAGTACA | 3190
GTTGCTTGCTAATTGCATGATCAAGTTGGGCCGATG | 3990
CAGCCCAGGTCCAATGTCGTGCAAAACGCAGATCCT | 6980
TATTTTTTTAAGCAGAACGTGCTTTGCTCTCCCTTT | 13400
CTTTCCCGATCTTGACGGGTGGGTGTAGCACATTTG | 4810
TCTGTGCTGTTCAATAACGTGGAATCCATTTTTGCT | 7400
ATTCACCAATTCCGTCACACTCAGCTAACTTCTCCT | 4710
GTCTTGTCTCATTGTCACTCCACTTTCCCCACTTCA | 4310
TATGACCGTCCGACCACCGTGACTCGTAACAAAGTC | 4300
CGTCCTAGTGATTGCGAGGTGGGTGCCATGAGGAAG | 8120
TGGTCCTAAACTCACCACGTGAAATAGGTTGATAAT | 13900
CTTTCCCGATCTTGTCGAGTGGGTGTAGCACATTTG | 4720

Study 4 — method: RNA Bind-n-Seq; molecule type: RNA; matrix: in vitro; concentration: 365 nM; baseline: no-protein control; direction: higher = stronger binding
Target: RNA binding protein fox-1 homolog 2, RRM domain, GST-SBP tag (RBFOX2, Homo sapiens, UniProt O43251-10, residues 100-194)
Notes: natural RNA segment, single round, ends assumed
Shared flanks, not repeated: GGGAGUUCUACAGUCCGACGAUC … UGGAAUUCUCGGGUGCCAA
Strand | RBNS enrichment (R)
AGCAAGAUUUUGGAAGCAUUCAUAUUUCCUUUUUAAAAUGUAUUCCUUUGUGUUCAACAGUUAAUCAAAACCAGAGAGUCUAGGGCAGCCUCUCUGAUGUUGUCAAUGAU | 0.719
UUUUAAGACUAAGUACCAAUUGAGGUAAACAUGAAACCGUUAUAAAGCAAAUUAAAAAAAAAUACAUUAGGAAAAGUUACACAAAUGAAGUGUACGCCUAUUAUAUUCCC | 0.931
AGGAUAGCAAGCAAUGGCAUUCUUGAACAGUCUAAGGCAGGUUUCUCAGUGUGGUCCUGAGAACAGAAGCAUCUGCAUCACCUGGGAAUGUAUUAGAAAUGCAAGUUCCC | 0.588
CUUUGUCCUAAGCUCUCUCCCAGGCCACGUUGUUAUUCACUGGGCAUGGAGAGAUGGUCAUUUCGUGGUCUACUGGAUGAGGCCUAUAGUUGAGACUUGUAGACAUUUAU | 0.36
AUAAGGCACACUGUAGUGCUUAAUAUGUGUAAGGACUUCCUCUUUAAAUUUGGUACCAGUAACUUAGUGACACAUAAUGACAACCAAAAUAUUUGAAAGCACUUAAGCAC | 0.424
UGCAGCCAUUGCUAUUGCAAUUCAUUUAAUAAAGCUUUAGUUUAAAAACCAAGCAUUGUGUACAGGAGCUAGGGCAGCGCAGGAGGCCCUUUCAGUUGGAGAGGCAGGUU | 0.675
AGCAAAUGUCCCGCCCCUGGGGACAGUGCGCCCGCUCGCCCUUGGUUGUGCUGGGCAGCAUUUGUACAUACAUGCGCGCAUUUAGUUUGCAGUUAAUUCCUGCUGCGCUG | 0.459
GCGCAGGCUGCAGUGAGCUCUGAUGGUACCACUGCACUCCAGCCUGGGUGACAGAGCGAGACCCUGUCUUAAAAAAAAAAACAAAACAAAACCAGCAUCUGUUACUGGAA | 0.729

Some of these lines once more (study 3):
Strand | fluorescence intensity [a.u.]
CAGCCCAGGTCCAATGTCGTGCAAAACGCAGATCCT | 6980
TATTTTTTTAAGCAGAACGTGCTTTGCTCTCCCTTT | 13400
CTTTCCCGATCTTGACGGGTGGGTGTAGCACATTTG | 4810
TCTGTGCTGTTCAATAACGTGGAATCCATTTTTGCT | 7400
ATTCACCAATTCCGTCACACTCAGCTAACTTCTCCT | 4710
